Measurements pooled from the literature.
Each numbered part is a random draw from the data of one study; scales do not carry over between parts.
Chain of UniProt O76039 (whole entry, looked up): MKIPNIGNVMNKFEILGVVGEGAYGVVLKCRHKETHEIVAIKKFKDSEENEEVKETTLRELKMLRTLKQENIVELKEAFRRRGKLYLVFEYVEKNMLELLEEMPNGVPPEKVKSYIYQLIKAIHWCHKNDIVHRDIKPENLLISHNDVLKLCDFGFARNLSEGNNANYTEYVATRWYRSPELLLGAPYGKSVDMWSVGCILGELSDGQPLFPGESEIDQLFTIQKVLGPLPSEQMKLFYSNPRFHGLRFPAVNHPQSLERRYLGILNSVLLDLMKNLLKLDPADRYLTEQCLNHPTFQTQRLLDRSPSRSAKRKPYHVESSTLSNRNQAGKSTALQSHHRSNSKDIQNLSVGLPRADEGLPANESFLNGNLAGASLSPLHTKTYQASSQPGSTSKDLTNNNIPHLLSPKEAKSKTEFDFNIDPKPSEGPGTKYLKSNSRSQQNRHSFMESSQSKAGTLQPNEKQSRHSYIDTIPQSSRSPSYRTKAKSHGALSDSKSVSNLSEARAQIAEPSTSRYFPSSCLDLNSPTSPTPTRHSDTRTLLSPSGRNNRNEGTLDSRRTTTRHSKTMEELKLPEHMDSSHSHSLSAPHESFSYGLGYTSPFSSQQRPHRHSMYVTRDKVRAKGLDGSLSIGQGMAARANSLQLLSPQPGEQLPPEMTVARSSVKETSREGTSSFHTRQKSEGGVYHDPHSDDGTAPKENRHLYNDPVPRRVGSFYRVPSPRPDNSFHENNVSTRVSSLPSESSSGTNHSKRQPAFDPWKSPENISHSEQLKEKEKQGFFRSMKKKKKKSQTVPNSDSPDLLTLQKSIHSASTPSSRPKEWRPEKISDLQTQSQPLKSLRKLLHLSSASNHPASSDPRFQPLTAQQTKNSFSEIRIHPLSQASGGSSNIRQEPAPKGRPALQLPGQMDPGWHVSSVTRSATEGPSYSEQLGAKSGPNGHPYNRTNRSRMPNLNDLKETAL
Chain of UniProt Q08345 (whole entry, looked up): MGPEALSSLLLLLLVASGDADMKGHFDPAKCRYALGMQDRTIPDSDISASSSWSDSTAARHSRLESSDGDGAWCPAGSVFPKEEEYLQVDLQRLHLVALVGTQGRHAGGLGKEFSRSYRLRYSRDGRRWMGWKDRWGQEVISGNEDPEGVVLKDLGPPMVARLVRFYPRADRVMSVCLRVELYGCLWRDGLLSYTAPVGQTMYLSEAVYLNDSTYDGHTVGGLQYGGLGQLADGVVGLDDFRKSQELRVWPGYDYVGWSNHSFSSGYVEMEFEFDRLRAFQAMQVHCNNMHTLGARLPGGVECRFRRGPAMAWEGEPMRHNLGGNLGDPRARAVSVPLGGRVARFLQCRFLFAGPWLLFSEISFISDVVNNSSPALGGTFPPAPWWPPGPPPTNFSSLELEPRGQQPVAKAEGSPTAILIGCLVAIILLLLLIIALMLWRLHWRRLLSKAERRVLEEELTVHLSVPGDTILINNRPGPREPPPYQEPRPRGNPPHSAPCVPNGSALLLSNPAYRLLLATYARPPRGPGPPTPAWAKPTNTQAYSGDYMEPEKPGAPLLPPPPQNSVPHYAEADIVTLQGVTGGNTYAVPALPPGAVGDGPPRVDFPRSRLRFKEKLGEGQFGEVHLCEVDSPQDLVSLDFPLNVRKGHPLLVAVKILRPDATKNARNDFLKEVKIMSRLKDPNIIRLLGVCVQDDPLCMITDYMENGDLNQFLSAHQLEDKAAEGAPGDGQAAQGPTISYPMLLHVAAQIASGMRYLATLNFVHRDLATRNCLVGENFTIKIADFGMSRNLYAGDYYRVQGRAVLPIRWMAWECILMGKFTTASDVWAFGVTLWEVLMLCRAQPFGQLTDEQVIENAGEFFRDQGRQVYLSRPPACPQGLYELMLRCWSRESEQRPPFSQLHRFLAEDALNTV
Chain of UniProt P42336 (whole entry, unmodified, looked up): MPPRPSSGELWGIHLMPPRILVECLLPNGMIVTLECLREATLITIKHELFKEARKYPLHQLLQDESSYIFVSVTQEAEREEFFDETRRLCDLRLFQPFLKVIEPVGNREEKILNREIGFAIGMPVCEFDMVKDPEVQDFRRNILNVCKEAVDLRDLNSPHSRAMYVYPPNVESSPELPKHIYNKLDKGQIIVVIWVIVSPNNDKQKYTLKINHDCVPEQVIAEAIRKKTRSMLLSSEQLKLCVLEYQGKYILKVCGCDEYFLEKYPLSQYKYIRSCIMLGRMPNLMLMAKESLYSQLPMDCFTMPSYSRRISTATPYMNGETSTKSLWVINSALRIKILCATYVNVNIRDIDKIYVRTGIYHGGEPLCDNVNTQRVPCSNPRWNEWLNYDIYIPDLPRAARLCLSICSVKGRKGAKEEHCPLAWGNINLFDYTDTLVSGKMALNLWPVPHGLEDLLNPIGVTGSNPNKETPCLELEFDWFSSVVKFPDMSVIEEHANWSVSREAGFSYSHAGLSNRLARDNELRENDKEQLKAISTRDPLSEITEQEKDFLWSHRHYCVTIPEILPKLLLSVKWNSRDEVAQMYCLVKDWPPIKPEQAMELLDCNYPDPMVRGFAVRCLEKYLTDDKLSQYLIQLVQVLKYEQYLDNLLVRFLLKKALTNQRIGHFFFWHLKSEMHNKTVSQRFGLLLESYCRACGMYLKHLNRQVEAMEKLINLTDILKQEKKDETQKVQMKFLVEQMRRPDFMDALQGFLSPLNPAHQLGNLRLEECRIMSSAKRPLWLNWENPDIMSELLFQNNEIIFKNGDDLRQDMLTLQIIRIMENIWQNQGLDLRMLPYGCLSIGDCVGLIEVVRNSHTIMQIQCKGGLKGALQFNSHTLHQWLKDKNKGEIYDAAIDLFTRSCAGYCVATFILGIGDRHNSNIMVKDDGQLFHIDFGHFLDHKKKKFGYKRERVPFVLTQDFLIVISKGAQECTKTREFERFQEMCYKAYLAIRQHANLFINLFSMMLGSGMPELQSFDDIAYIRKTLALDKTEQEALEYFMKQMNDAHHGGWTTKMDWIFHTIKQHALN
Chain of UniProt Q8NFD2 (whole entry, looked up): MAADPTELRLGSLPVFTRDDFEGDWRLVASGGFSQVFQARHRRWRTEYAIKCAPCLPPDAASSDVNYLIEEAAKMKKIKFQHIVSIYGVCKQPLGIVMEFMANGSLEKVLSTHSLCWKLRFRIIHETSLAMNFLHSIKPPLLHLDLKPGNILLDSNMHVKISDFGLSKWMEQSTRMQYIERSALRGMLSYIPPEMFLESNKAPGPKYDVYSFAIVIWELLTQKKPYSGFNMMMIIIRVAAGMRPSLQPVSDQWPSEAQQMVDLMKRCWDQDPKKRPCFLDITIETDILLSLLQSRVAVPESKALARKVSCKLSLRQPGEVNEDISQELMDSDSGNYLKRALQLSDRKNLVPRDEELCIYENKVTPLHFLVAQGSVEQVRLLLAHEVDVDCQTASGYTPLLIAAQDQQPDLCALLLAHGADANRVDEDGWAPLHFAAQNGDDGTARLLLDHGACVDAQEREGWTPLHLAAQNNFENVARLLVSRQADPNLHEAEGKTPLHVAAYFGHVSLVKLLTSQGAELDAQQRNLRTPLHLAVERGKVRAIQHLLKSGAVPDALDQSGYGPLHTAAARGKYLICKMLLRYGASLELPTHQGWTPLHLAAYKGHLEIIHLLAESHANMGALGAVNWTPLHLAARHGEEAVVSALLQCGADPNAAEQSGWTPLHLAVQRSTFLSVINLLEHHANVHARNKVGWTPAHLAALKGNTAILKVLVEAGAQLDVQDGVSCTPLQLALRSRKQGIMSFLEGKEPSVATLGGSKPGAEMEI
Chain of UniProt Q00526 (whole entry, looked up): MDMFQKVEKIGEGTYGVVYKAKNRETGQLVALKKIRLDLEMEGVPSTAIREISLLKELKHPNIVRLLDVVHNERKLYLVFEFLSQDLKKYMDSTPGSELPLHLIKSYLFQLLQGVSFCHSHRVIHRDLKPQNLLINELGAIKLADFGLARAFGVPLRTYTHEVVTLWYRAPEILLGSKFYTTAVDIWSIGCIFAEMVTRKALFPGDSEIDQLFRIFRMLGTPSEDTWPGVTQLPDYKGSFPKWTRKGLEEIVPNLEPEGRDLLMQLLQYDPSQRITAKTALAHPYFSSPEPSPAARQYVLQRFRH

Series 1 — action: inhibitor; concentration: 10 µM; relative to: control
Target: Diamine acetyltransferase 1 (Homo sapiens, UniProt P21673)
Target sequence (P21673 1-171): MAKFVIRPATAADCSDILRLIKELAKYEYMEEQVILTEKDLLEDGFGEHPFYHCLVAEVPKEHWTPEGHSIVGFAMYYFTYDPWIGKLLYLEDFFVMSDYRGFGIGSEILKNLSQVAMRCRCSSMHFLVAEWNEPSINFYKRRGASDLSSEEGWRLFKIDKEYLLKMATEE
`C=C[C@](C)(O)CC[C@@H]1[C@@]2(C)CCCC(C)(C)[C@@H]2CC[C@@]1(C)O` has a remaining activity of 98.2%.
With `OC[C@H]1O[C@@H](O[C@@H]2OC=C[C@H]3[C@H](O)[C@@H]4O[C@]4(CO)[C@@H]23)[C@H](O)[C@@H](O)[C@@H]1O` the remaining activity was 94.3%.
The remaining activity of `CC(=O)OC/C=C(\C)CCC=C(C)C` is reported as 91.1%.
With `COc1cc(O[C@@H]2O[C@H](CO[C@@H]3O[C@H](CO)[C@@H](O)[C@H](O)[C@H]3O)[C@@H](O)[C@H](O)[C@H]2O)c2c(O)c3c(=O)cc(C)oc3cc2c1` the remaining activity was 111%.
`COC(=O)C1=CO[C@@H](O[C@@H]2O[C@H](CO)[C@@H](O)[C@H](O)[C@H]2O)[C@@H]2C(CO)=CC[C@H]12` gave a remaining activity of 84.3%.
`COc1cc(-c2oc3cc(O)cc(O)c3c(=O)c2O[C@@H]2O[C@H](CO[C@@H]3O[C@@H](C)[C@H](O)[C@@H](O)[C@H]3O)[C@@H](O)[C@H](O)[C@H]2O)ccc1O` gave a remaining activity of 99.9%.
With `C[C@@H]1O[C@@H](O[C@H]2[C@H](O[C@H]3[C@H](O[C@H]4CC[C@@]5(C)[C@@H](CC[C@]6(C)[C@@H]5CC=C5[C@@H]7CC(C)(C)C[C@@H](O)[C@]7(C)CC[C@]56C)[C@@]4(C)CO)O[C@H](C(=O)O)[C@@H](O)[C@@H]3O)O[C@H](CO)[C@H](O)[C@@H]2O)[C@H](O)[C@H](O)[C@H]1O` the remaining activity was 110%.
`O=c1c(O)c(-c2ccccc2)oc2ccccc12` gave a remaining activity of 82.7%.
`O=C1c2cccc(O)c2C(=O)c2c(O)cc(CO)cc21` has a remaining activity of 97.6%.
With `C[C@H](CC[C@@H](O[C@@H]1O[C@H](CO[C@@H]2O[C@H](CO)[C@@H](O)[C@H](O)[C@H]2O)[C@@H](O)[C@H](O)[C@H]1O[C@@H]1O[C@H](CO)[C@@H](O)[C@H](O)[C@H]1O)C(C)(C)O)[C@H]1CC[C@@]2(C)[C@@H]3CC=C4[C@@H](CC[C@H](O[C@@H]5O[C@H](CO[C@@H]6O[C@H](CO)[C@@H](O)[C@H](O)[C@H]6O)[C@@H](O)[C@H](O)[C@H]5O)C4(C)C)[C@]3(C)C(=O)C[C@]12C` the remaining activity was 96.3%.
For `C[C@@H]1CC[C@@]2(OC1)O[C@H]1C[C@H]3[C@@H]4CC=C5C[C@@H](O[C@@H]6O[C@H](CO)[C@@H](O[C@@H]7O[C@@H](CO)[C@H](O)[C@H]7O)[C@H](O)[C@H]6O[C@@H]6O[C@@H](C)[C@H](O)[C@@H](O)[C@H]6O)CC[C@]5(C)[C@H]4CC[C@]3(C)[C@H]1[C@@H]2C`, the remaining activity was 96.1%.
The remaining activity of `C=C1C[C@@]2(O)O[C@@]3(C[C@H]2C(C)C)[C@@H](C)CC[C@@H]13` is reported as 91.8%.
For `O=C(O)c1ccco1`, the remaining activity was 87.3%.

Series 2 — read-out: enzyme activity; action: inhibitor; concentration: 0.5 µM; relative to: control
Target: Tyrosine-protein kinase Fes/Fps (FES, Homo sapiens, UniProt P07332)
Chain of UniProt P07332 (whole entry, looked up): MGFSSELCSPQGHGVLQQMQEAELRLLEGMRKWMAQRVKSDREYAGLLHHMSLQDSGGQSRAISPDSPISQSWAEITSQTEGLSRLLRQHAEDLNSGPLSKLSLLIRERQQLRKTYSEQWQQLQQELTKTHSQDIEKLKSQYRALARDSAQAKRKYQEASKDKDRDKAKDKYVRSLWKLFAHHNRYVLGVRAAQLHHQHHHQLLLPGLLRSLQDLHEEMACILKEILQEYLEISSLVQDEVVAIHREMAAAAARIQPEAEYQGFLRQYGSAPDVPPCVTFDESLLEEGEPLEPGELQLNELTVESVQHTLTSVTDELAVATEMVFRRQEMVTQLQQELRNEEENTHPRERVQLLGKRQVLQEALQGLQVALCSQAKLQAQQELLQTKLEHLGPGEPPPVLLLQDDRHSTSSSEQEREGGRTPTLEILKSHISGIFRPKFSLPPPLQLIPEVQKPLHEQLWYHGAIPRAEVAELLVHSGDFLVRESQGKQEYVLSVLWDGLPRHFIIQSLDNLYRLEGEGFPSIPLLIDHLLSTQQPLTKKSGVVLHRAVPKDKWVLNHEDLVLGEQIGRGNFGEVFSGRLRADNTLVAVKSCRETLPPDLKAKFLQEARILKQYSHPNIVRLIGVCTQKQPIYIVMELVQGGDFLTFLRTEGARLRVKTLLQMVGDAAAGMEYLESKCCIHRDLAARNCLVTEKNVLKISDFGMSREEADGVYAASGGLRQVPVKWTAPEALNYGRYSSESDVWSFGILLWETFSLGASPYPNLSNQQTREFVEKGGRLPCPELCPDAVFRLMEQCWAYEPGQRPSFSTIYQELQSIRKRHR
With `CN(C)S(=O)(=O)c1ccc2c(c1)/C(=C/c1cc3c([nH]1)CCCC3)C(=O)N2` the remaining activity was 76.9%.
`O=C1Cc2c([nH]c3ccc(Br)cc23)-c2ccccc2N1` gave a remaining activity of 87.8%.
`O=C(c1cc2cc(O)ccc2[nH]1)c1cc2cc(O)ccc2[nH]1` gave a remaining activity of 95.3%.
For `Oc1cccc(-c2nc(N3CCOCC3)c3oc4ncccc4c3n2)c1`, the remaining activity was 98.8%.
With `O=Nc1c(-c2c(O)[nH]c3cc(Br)ccc23)[nH]c2ccccc12` the remaining activity was 96%.
With `c1ccc(-c2n[nH]c3c2oc2ccccc23)cc1` the remaining activity was 114%.
`Cc1ccc(S(=O)(=O)/C=C/C#N)cc1` has a remaining activity of 100%.
`COc1ccc2c(c1)c(C1=C(c3c[nH]c4ccccc34)C(=O)NC1=O)cn2CCCN(C)C` gave a remaining activity of 120%.
For `c1ccc2c(-c3ccncc3)c[nH]c2c1`, the remaining activity was 105%.
`O=c1cc(N2CCOCC2)oc2c(-c3ccccc3)cccc12` gave a remaining activity of 96.6%.
With `O=C1Nc2ccccc2/C1=C\c1c(Cl)[nH]c2ccccc12` the remaining activity was 96.6%.
With `O=C1NC(=O)c2c1c1c3ccccc3[nH]c1c1[nH]c3cc(Br)ccc3c21` the remaining activity was 88.1%.
With `CCCNC(=O)Nc1ccc(Oc2ncnc3cc(OC)c(OC)cc23)cc1Cl` the remaining activity was 96%.
For `O=C1Nc2ccc(Br)cc2/C1=C/c1cc2c([nH]1)CCCC2`, the remaining activity was 83.8%.
With `O=C1NC(=O)c2c1c1c3ccccc3[nH]c1n1cncc21` the remaining activity was 117%.
`CN1CCN(c2ccc3nc(-c4c(N)c5c(F)cccc5[nH]c4=O)[nH]c3c2)CC1` gave a remaining activity of 91.9%.
The remaining activity of `N#Cc1cnc2cnc(NCc3cccnc3)cc2c1Nc1ccc(F)c(Cl)c1` is reported as 108%.
`COc1cccc(-c2cc(=O)c3ccccc3o2)c1N` has a remaining activity of 94.3%.
`CCCCc1c(-c2ccc(OC)cc2)[nH]c2nccnc12` gave a remaining activity of 66%.

Series 3 — read-out: β-arrestin recruitment; action: agonist; method: PRESTO-Tango; concentration: 10 µM; relative to: untreated
Structure (SMILES): N=C(N)NC(=O)c1cnn(-c2cccc3ncccc23)c1C1CC1
It gave 0.97 for “fold over basal” (C-X-C chemokine receptor type 3 (CXCR3, Homo sapiens, UniProt P49682)).
P2Y purinoceptor 12 (P2RY12, Homo sapiens, UniProt Q9H244) — “fold over basal”: 1.13.
It gave 1.21 for “fold over basal” (Cannabinoid receptor 1 (CNR1, Homo sapiens, UniProt P21554)).
It gave 0.96 for “fold over basal” (Probable G-protein coupled receptor 34 (Homo sapiens, UniProt Q9UPC5)).
ADGRG1 (Homo sapiens, UniProt Q9Y653) — “fold over basal”: 1.15.
For 2-oxoglutarate receptor 1 (OXGR1, Homo sapiens, UniProt Q96P68): “fold over basal” read 1.
The “fold over basal” was 1.13 (ADGRF1 (Homo sapiens, UniProt Q5T601)).
C-C chemokine receptor type 4 (CCR4, Homo sapiens, UniProt P51679) — “fold over basal”: 0.8.
Trace amine-associated receptor 8 (TAAR8, Homo sapiens, UniProt Q969N4) — “fold over basal”: 1.03 fold.
Corticotropin-releasing factor receptor 1 (CRHR1, Homo sapiens, UniProt P34998) — “fold over basal”: 2.16.
For Motilin receptor (MLNR, Homo sapiens, UniProt O43193): “fold over basal” read 0.72.
For Lysophosphatidic acid receptor 6 (Homo sapiens, UniProt P43657): “fold over basal” read 0.95.
For Neurotensin receptor type 2 (NTSR2, Homo sapiens, UniProt O95665): “fold over basal” read 1.3.
It gave 1.54 for “fold over basal” (Neuromedin-U receptor 1 (NMUR1, Homo sapiens, UniProt Q9HB89)).
The “fold over basal” was 1.01 (Mas-related G-protein coupled receptor member X1 (MRGPRX1, Homo sapiens, UniProt Q96LB2)).
It gave 1 fold for “fold over basal” (Proteinase-activated receptor 4 (F2RL3, Homo sapiens, UniProt Q96RI0)).
It gave 1.23 fold for “fold over basal” (Growth hormone secretagogue receptor type 1 (GHSR, Homo sapiens, UniProt Q92847)).
It gave 1.04 fold for “fold over basal” (Lutropin-choriogonadotropic hormone receptor (LHCGR, Homo sapiens, UniProt P22888)).

Series 4 — read-out: cell-free assay; method: competition with immobilised ligand; concentration: 0.1 µM
Structure (SMILES): Cn1nc(C(=O)NCc2ccc(C(=O)O)cc2)cc1-c1ccc2[nH]ccc2c1
Cyclin-dependent kinase-like 5 (CDKL5, Homo sapiens, UniProt O76039) — remaining binding: 85%.
The remaining binding was 100% (Cyclin-dependent kinase 14 (CDK14, Homo sapiens, UniProt O94921)).
Receptor-type tyrosine-protein kinase FLT3 (FLT3, Homo sapiens, UniProt P36888, K663Q) — remaining binding: 86%.
It gave 84% for remaining binding (Interferon-induced, double-stranded RNA-activated protein kinase (EIF2AK2, Homo sapiens, UniProt P19525)).
The remaining binding was 88% (Serine/threonine-protein kinase OSR1 (OXSR1, Homo sapiens, UniProt O95747)).
The remaining binding was 88% (Cyclin-dependent kinase 3 (CDK3, Homo sapiens, UniProt Q00526)).
It gave 100% for remaining binding (Ankyrin repeat and protein kinase domain-containing protein 1 (ANKK1, Homo sapiens, UniProt Q8NFD2)).
The remaining binding was 78% (Mitogen-activated protein kinase kinase kinase 3 (MAP3K3, Homo sapiens, UniProt Q99759)).
Dual specificity protein kinase CLK3 (CLK3, Homo sapiens, UniProt P49761) — remaining binding: 95%.
For Serine/threonine-protein kinase BRSK1 (BRSK1, Homo sapiens, UniProt Q8TDC3): remaining binding read 86%.
The remaining binding was 90% (Mitogen-activated protein kinase 12 (MAPK12, Homo sapiens, UniProt P53778)).
Aurora kinase B (AURKB, Homo sapiens, UniProt Q96GD4) — remaining binding: 92%.
Phosphatidylinositol 4,5-bisphosphate 3-kinase catalytic subunit alpha isoform (PIK3CA, Homo sapiens, UniProt P42336, E545K) — remaining binding: 87%.
It gave 93% for remaining binding (Interleukin-1 receptor-associated kinase 1 (IRAK1, Homo sapiens, UniProt P51617)).
It gave 94% for remaining binding (eIF-2-alpha kinase GCN2, C-terminal kinase domain (EIF2AK4, Homo sapiens, UniProt Q9P2K8, S808G)).
Epithelial discoidin domain-containing receptor 1 (DDR1, Homo sapiens, UniProt Q08345) — remaining binding: 89%.
The remaining binding was 90% (Eukaryotic translation initiation factor 2-alpha kinase 1 (EIF2AK1, Homo sapiens, UniProt Q9BQI3)).
The remaining binding was 91% (Mitogen-activated protein kinase kinase kinase 15 (MAP3K15, Homo sapiens, UniProt Q6ZN16)).
For Tyrosine-protein kinase Blk (BLK, Homo sapiens, UniProt P51451): remaining binding read 100%.
The remaining binding was 100% (Cyclin-dependent kinase 8 (CDK8, Homo sapiens, UniProt P49336)).
It gave 100% for remaining binding (Aurora kinase A (AURKA, Homo sapiens, UniProt O14965)).
The remaining binding was 89% (Serine/threonine-protein kinase D3 (PRKD3, Homo sapiens, UniProt O94806)).

Excerpt of the above (series 3):
It gave 0.96 for “fold over basal” (Probable G-protein coupled receptor 34 (Homo sapiens, UniProt Q9UPC5)).
It gave 0.97 for “fold over basal” (C-X-C chemokine receptor type 3 (CXCR3, Homo sapiens, UniProt P49682)).
It gave 1.04 fold for “fold over basal” (Lutropin-choriogonadotropic hormone receptor (LHCGR, Homo sapiens, UniProt P22888)).
ADGRG1 (Homo sapiens, UniProt Q9Y653) — “fold over basal”: 1.15.
Trace amine-associated receptor 8 (TAAR8, Homo sapiens, UniProt Q969N4) — “fold over basal”: 1.03 fold.
It gave 1 fold for “fold over basal” (Proteinase-activated receptor 4 (F2RL3, Homo sapiens, UniProt Q96RI0)).
For Lysophosphatidic acid receptor 6 (Homo sapiens, UniProt P43657): “fold over basal” read 0.95.
The “fold over basal” was 1.13 (ADGRF1 (Homo sapiens, UniProt Q5T601)).
P2Y purinoceptor 12 (P2RY12, Homo sapiens, UniProt Q9H244) — “fold over basal”: 1.13.
For Motilin receptor (MLNR, Homo sapiens, UniProt O43193): “fold over basal” read 0.72.
